Assay results gathered from unrelated publications.
Numbered parts are unrelated; each lists some results of a single study. “And” joins repeats or separate records; there may be more than shown. Positions count from the first letter of the parent shown.
Sequence of UniProt P62344 (whole entry, looked up): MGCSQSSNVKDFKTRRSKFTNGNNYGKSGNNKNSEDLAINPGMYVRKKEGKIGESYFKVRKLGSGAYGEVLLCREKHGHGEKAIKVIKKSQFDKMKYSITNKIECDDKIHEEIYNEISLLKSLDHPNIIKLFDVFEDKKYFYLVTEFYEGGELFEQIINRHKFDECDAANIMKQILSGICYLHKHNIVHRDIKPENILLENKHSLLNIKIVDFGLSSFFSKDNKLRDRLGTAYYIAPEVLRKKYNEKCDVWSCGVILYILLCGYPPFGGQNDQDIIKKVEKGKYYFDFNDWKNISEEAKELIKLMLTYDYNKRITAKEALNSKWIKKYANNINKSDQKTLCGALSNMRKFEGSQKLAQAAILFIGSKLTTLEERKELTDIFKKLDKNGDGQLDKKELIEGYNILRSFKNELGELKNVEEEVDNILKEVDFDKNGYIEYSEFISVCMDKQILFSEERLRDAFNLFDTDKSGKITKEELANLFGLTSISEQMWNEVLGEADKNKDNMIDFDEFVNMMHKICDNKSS

Study 1 — target: CRIPT, C-terminal peptide; method: DHFR complementation, deep sequencing; matrix: yeast; relative to: wild type; reading: higher = weaker binding; quantity: binding free energy change
Setting: single substitutions, model-inferred values
Starting sequence: ERBIN, PDZ domain 1 (human); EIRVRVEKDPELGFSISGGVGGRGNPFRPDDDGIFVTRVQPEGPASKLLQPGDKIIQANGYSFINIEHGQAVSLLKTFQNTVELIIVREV; partner TKNYKQTSV
V87I: -0.0167 kcal/mol
T77E: 0.0904 kcal/mol
I56C: 0.176 kcal/mol
I34H: 1.13 kcal/mol
S15I: 0.678 kcal/mol
K76Y: 0.946 kcal/mol
K8F: 1.26 kcal/mol
A71W: 1.43 kcal/mol

Study 2 — target: CCNA1, cyclin fold, Cln2 fusion (human); method: yeast growth competition, sequencing; matrix: yeast; setting: strong parent motif; relative to: not given; reading: higher = stronger binding; quantity: normalised enrichment score; starting sequence: viral docking peptide; TSVRRALFTGGSD
TSVRRALFKGGSD [T9K]: 0.83
TSVRRALFTGGYD [S12Y]: 1.12
TSVRRPLFTGGSD [A6P]: 0.2
TSVRRACFTGGSD [L7C]: 0.29
TSVHRALFTGGSD [R4H]: 0.131
TSVRCALFTGGSD [R5C]: -0.103
TSVTRALFTGGSD [R4T]: 0.224
TSVRRNLFTGGSD [A6N]: 0.862
TFVRRALFTGGSD [S2F]: 0.514
TSVRRALFTGGSA [D13A]: 0.759
TSVRRALITGGSD [F8I]: -0.0382
TSVRRALMTGGSD [F8M]: 0.228
TSVRPALFTGGSD [R5P]: -0.394
TSVRRAIFTGGSD [L7I]: -0.0498
TSVRRALVTGGSD [F8V]: 0.427
TSVRRALFYGGSD [T9Y]: 1.19
TQVRRALFTGGSD [S2Q]: 1.03
TSDRRALFTGGSD [V3D]: -0.121
TSVRRALFTGGND [S12N]: 0.93
TSVPRALFTGGSD [R4P]: -0.147
TSVRRATFTGGSD [L7T]: 0.394
TSMRRALFTGGSD [V3M]: 0.254

Study 3 — method: DHFR PCA, deep sequencing; matrix: yeast; together with: (+)-ABA 1.4 µM; relative to: wild-type fitted maximum; reading: higher = stronger binding; quantity: relative binding score
Target: ABI1, truncated, D143A, DHFR fusion (Arabidopsis thaliana)
Setting: methotrexate growth selection, single substitutions
Starting sequence: PYL1, truncated, DHFR fusion (Arabidopsis thaliana); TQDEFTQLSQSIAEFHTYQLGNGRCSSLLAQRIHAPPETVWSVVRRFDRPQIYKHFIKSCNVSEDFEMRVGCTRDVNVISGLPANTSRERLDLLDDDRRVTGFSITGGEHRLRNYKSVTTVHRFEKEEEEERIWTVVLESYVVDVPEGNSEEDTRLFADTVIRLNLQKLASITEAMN
V62P: 1.36%
W134I: 62.5%
V136H: -15.7%
E14T: 22.1%
T39N: 13.2%
L29E: -2.79%
L164T: 81.1%
V137E: -9.89%

Other studies, line by line
EXOC5 (Homo sapiens, UniProt O00471)
cross-linked residues (EXOC8 (Homo sapiens, UniProt Q8IYI6); cross-linking MS; cell fractions; together with: DSSO): K132 to K60

COc1ccc2c(O[C@@H]3C[C@H]4C(=O)N[C@]5(C(=O)O)CC5/C=C\CCCCC[C@H](NC(=O)OC5CCCC5)C(=O)N4C3)cc(-c3csc(NC(=O)C(C)C)n3)nc2c1C (some centres unmarked)
remaining binding (Calcium-dependent protein kinase 1 (CDPK1, Plasmodium falciparum, UniProt P62344); cell-free assay, competition with immobilised ligand; 1 µM): 100%

SF3B1 (Homo sapiens, UniProt O75533)
interaction screen (DDX46 (Homo sapiens, UniProt Q7L014); cross-linking MS; hits only): cross-linked

CC(C)S(=O)(=O)c1cc2c(Nc3ccc4sc(C5CCCC5)nc4c3)ccnc2cc1OCCO
cell survival (HT-29; necroptosis, CCK-8; 0.014 µM, together with: TNF-α, Smac mimetic, z-VAD): 25.8% and 26.6% and 26.9%

MBD3 (Homo sapiens, UniProt O95983)
interaction screen (GATAD2A (Homo sapiens, UniProt Q86YP4); cross-linking MS; hits only): cross-linked

SMC1A (Homo sapiens, UniProt Q14683)
cross-linked residues (PDS5B (Homo sapiens, UniProt Q9NTI5); cross-linking MS; cell fractions; together with: DMTMM): E1012 to K282

For quick reference, copied from above (study 2):
TSVRRALFTGGND [S12N]: 0.93
TSVPRALFTGGSD [R4P]: -0.147
TSVRRATFTGGSD [L7T]: 0.394
